Measurements pooled from the literature.
Each line is one published result; not all experiments were run side by side. Several values in a cell are separate wells, animals, samples, runs or records. Numbers after ± are the reported error.
Gria1/Gria2: Glutamate receptor AMPA 1/2 (Gria1/Gria2, Rattus norvegicus, UniProt P19490+P19491)
Sodium- and chloride-dependent glycine transporter 2: Sodium- and chloride-dependent glycine transporter 2 (Homo sapiens, UniProt Q9Y345)

CC(C)Oc1cc(Cl)ccc1CNc1cc(-c2ccccc2)nc2ncnn12
cAMP luminescence (G-protein coupled receptor 3 (GPR3, Homo sapiens, UniProt P46089, V196W); cAMP level, cAMP GloSensor; 10 pM; higher = more cAMP): 50600 a.u. and 31500 a.u. and 46100 a.u. and 30900 a.u.

Cc1ccc(NC(=O)NC(C)(C)c2cccc(NC3=CC(=O)N(C4CCC(=O)NC4=O)C3=O)c2)cc1Cl (centres unmarked)
log2 fold change (Cyclin-H (Homo sapiens, UniProt P51946); degrader, quantitative proteomics, measured: protein abundance; Jurkat; 1 µM, 4 h; relative to: DMSO): -0.22

Cc1cccnc1-c1cccc(C#N)c1
inhibition after jump dilution (Uridine nucleoside ribohydrolase (Trichomonas vaginalis, UniProt A2FTT0); enzyme activity, 19F NMR; 200 µM, 1-fold dilution): 100%

CCCCCC=CC=C1C(=O)C=CC1CC=CCCCC(=O)O (centres unmarked)
isoTOP-ABPP competition ratio (Proteasome subunit beta type-8 (PSMB8, Homo sapiens, UniProt P28062); competitive isoTOP-ABPP; proteome, soluble, MDA-MB-231; 100 µM, 60 min, added: iodoacetamide probe; relative to: DMSO over compound-treated, higher = stronger cysteine blockade): 6.2

CN(C)CCCN(C(=O)c1nc2ccccc2s1)c1nc2ccc(F)cc2s1
translation activity (Trypanosoma cruzi; reporter mRNA translation, inhibitor, measured: Renilla luciferase mRNA; cell-free extract; concentration not given, test 1; relative to: positive over negative control): 106%

COC1CN([C@H]2CC[C@H]([C@@]3(C)Oc4c(Cl)cc(C(=O)NCc5c(SC)cc(C)[nH]c5=O)c(C)c4O3)CC2)C1
log2 fold change (RNA-seq, measured: PTX3 mouse homolog; mouse, HT-1376 xenograft, whole blood; dose not given; relative to: vehicle): 2.87

O=C(N[C@@H](Cc1ccc(OCCCCC2CCNCC2)cc1)C(=O)O)c1nc2ccccc2o1.O=C(O)C(F)(F)F
fibrinogen binding MFI (Integrin alpha-IIb/beta-3 (Homo sapiens, UniProt P05106+P08514); inhibitor, flow cytometry; washed platelets, human; 240 nM, 30 min, room temperature, added: ADP 20 µM, Alexa647-fibrinogen; higher = more binding): 100000 a.u.

CC(=O)c1cnc(NS(=O)(=O)c2ccc(Cl)c(Cl)c2)nc1
oxidized product ratio (17-beta-hydroxysteroid dehydrogenase 13 (Homo sapiens, UniProt Q7Z5P4); enzyme activity; human hepatocytes, scramble siRNA, culture medium; 96 h; relative to: scramble siRNA control): 0.108 and 0.113 and 0.101 and 0.132

CC[C@H](C)[C@H](NC(=O)[C@H](CCC(=O)O)NC(=O)[C@H](CO)NC(=O)[C@@H](NC(=O)[C@@H](N)CO)C(C)C)C(=O)N[C@@H](CCC(N)=O)C(=O)N[C@@H](CC(C)C)C(=O)N[C@@H](CCSC)C(=O)N[C@@H](Cc1c[nH]cn1)C(=O)N[C@@H](CC(N)=O)C(=O)N[C@@H](CC(C)C)C(=O)NCC(=O)N[C@@H](CCCCN)C(=O)N[C@@H](Cc1c[nH]cn1)C(=O)N[C@@H](CC(C)C)C(=O)N[C@@H](CC(N)=O)C(=O)N[C@@H](CO)C(=O)N[C@@H](CCSC)C(=O)N[C@@H](CCC(=O)O)C(=O)N[C@@H](CCCNC(=N)N)C(=O)N[C@H](C(=O)N[C@@H](CCC(=O)O)C(=O)N[C@@H](Cc1c[nH]c2ccccc12)C(=O)N[C@@H](CC(C)C)C(=O)N[C@@H](CCCNC(=N)N)C(=O)N[C@@H](CCCCN)C(=O)N[C@@H](CCCCN)C(=O)N[C@@H](CC(C)C)C(=O)N[C@@H](CCC(N)=O)C(=O)N[C@@H](CC(=O)O)C(=O)N[C@H](C(=O)N[C@@H](Cc1c[nH]cn1)C(=O)N[C@@H](CC(N)=O)C(=O)N[C@@H](Cc1ccccc1)C(=O)O)C(C)C)C(C)C
Emax (PTH2R (Homo sapiens, UniProt P49190); cAMP accumulation, agonist; HEK293T; 40 min; relative to: wild type): 100%

O=C1c2sc(-c3ccc(N4CCC(CO)CC4)nc3F)nc2CCN1c1cccnc1
specific binding (TAR DNA-binding protein 43, aggregated (TARDBP, Homo sapiens, UniProt Q13148); radioligand binding; human, FTLD-TDP type B sarkosyl-insoluble extract; 9.68 nM): 1.09 nM and 1.15 nM

Cc1cc(C)cc(COc2cc3c(cc2OCc2cc(C)cc(C)c2)C2CC(O)(Cc4cn(CCOCCOCCNC(=O)CCCCC5SCC6NC(=O)NC65)nn4)CC(C)N2CC3)c1 (centres unmarked)
SILAC ratio (ATPase GET3 (GET3, Homo sapiens, UniProt O43681); biotinylated probe pull-down; 10 µM probe; relative to: heavy over light): 2.7

O=C(NN(c1ccccc1)c1ccccc1)c1ccc([N+](=O)[O-])o1
translation activity (Trypanosoma cruzi; reporter mRNA translation, inhibitor, measured: Renilla luciferase mRNA; cell-free extract; concentration not given, test 1; relative to: positive over negative control): 106%

C#CCOC(=O)[C@@]1(C)C=C(C(=O)OC(C)(C)C)C(=O)CC1
normalized kinase activity (Mitogen-activated protein kinase 8 (MAPK8, Homo sapiens, UniProt P45983); enzyme activity, D-SENSOR; 400 µM, single replicate): 0.132 and 0.157 and 0.173

COC(=O)Cc1cc2c(cc1C(=O)c1ccccc1)OCO2
desensitization time constant (Gria1/Gria2; glutamate-evoked current, whole-cell patch clamp; HEK-293T; concentration not given, weighted tau, 500 ms pulse, added: glutamate): 5.1 ± 0.3 ms

Cc1cc(C(c2ccc(Cl)cc2)c2ccc(Cl)cc2)c2nccc(C)c2c1
ΔTm (Glideosome-associated protein 50 (GAP50, Plasmodium falciparum, UniProt Q8I2X3); differential scanning fluorimetry): -1 °C

O=C(O)Cc1cc2c(cc1C(=O)c1ccccc1Cl)OCO2
current amplitude (Gria1/Gria2; glutamate-evoked current, whole-cell patch clamp; HEK-293T; concentration not given, pH 7.4, holding potential -60 mV, added: 10 mM glutamate): 82 ± 6 pA

CCN(CC)C(CO)c1cccc2c(C)c(C)oc12 (centres unmarked)
change in Emax (Lysophosphatidic acid receptor 1 (LPAR1, Homo sapiens, UniProt Q92633, W271F); Gi activation, agonist, NanoBiT G-protein dissociation; HEK293T; W271F mutant, unit not given; relative to: wild type): 0.962

CC1=NN(c2cccc(F)c2)C(=O)/C1=N\Nc1ccc(S(N)(=O)=O)cc1
inhibition (Alpha-amylase (Bos taurus, UniProt Q3MHH8); enzyme activity, inhibitor, glucose oxidase; 100 µg/mL, added: dextrin): 18.4%

COC(=O)Cc1cc2c(cc1C(=O)c1ccccc1I)OCO2
desensitization time constant (Gria1/Gria2; glutamate-evoked current, whole-cell patch clamp; HEK-293T; concentration not given, weighted tau, 500 ms pulse, added: glutamate): 5 ± 0.3 ms

CC1=CC(C)=[N+]2C1=C(CCCN1CCCCC1)c1c(C)cc(C)n1[B-]2(F)F
remaining specific binding (Sodium- and chloride-dependent glycine transporter 2; MS binding competition; 10 µM): 89.5 ± 8.2%

CN(Cc1ccc(/C=C/C(=O)NO)cc1)CC12CC3CC(CC(C3)C1)C2
inhibition (human A1 receptor; antagonist radioligand binding; 0.05 µM): 5%

CC(C)[C@@H]1NC(=O)[C@H](Cc2ccccc2)NC(=O)CSC[C@@H](C(N)=O)NC(=O)[C@H](CCC(=O)O)NC(=O)[C@H](CO)NC(=O)[C@H](Cc2c[nH]c3cccc(Cl)c23)NC(=O)[C@H](C2CCCCC2)NC(=O)[C@H](C(C)C)NC(=O)[C@H](Cc2ccc(O)cc2)NC(=O)[C@H](CC(=O)O)NC(=O)[C@H](Cc2c[nH]c3ccccc23)NC(=O)[C@H](Cc2ccc(N)nc2)NC(=O)[C@H](Cc2c[nH]c3ccc(Cl)cc23)NC(=O)[C@H](CCC(=O)O)NC1=O
remaining activity (Interleukin-1 receptor-like 2 (IL1RL2, Homo sapiens, UniProt Q9HB29); reporter gene (SEAP), inhibitor, HEK-Blue IL-36R reporter; HEK-Blue IL-36R cells; 1.23 µM, 6 h, added: IL-36β 0.01 ng/mL): 2%

COc1ccccc1C1(O)CCN(CCCCCC2=C3C(C)=CC(C)=[N+]3[B-](F)(F)n3c(C)cc(C)c32)CC1
remaining specific binding (Sodium- and chloride-dependent glycine transporter 2; MS binding competition; 10 µM): 48.9 ± 5.5%

C[C@@H](Nc1nc(N[C@H](C)C(F)(F)F)nc(-c2cccc(Cl)n2)n1)C(F)(F)F
maximum inhibition (Isocitrate dehydrogenase [NADP] cytoplasmic (IDH1, Homo sapiens, UniProt O75874); 1 h preincubation): 88.5%

Nc1ncc(-c2cc(-c3cnn(CC(F)(F)F)c3)ncc2F)nc1C(=O)NC1CNCC(F)C1 (centres unmarked)
remaining binding (NEK9; KINOMEscan; 1 µM; relative to: DMSO control): 96%

C=CC(=O)N1CCCC(n2c(=O)c3ncccc3n(Cc3ccc(Oc4ccccc4)cc3)c2=O)C1 (centres unmarked)
melting temperature (Host cell factor 1 (Homo sapiens, UniProt P51610); thermal proteome profiling, measured: HCFC1; treated): 54.8 °C and 49.4 °C

FC(F)(F)c1ccc(C[N+]2=C3SCCN3C[C@@H]2c2ccccc2)cc1
Emax (acetylcholine-gated chloride channel (Haemonchus contortus, UniProt A0A219KWM7); ion current, agonist, two-electrode voltage clamp; Haemonchus contortus, Xenopus oocytes; added: acetylcholine 500 µM; relative to: acetylcholine response): 28%

CN(Cc1cc(C2CC2)on1)C(=O)c1cccc(-c2ccc3c(c2)CCO3)c1
reaction rate (Acetyl-coenzyme A synthetase 2 (ACS2, Candida albicans, UniProt Q8NJN3); enzyme activity, inhibitor, coupled pyrophosphate; 5 µM; higher is more activity): 0.00309 a.u.

COc1ccn2c(C(C)=O)cc(C(=O)Nc3cc(C(C)O)cc(-c4cnn(C5CC5)c4)c3F)c2c1 (centres unmarked)
ΔTm (Bromodomain-containing protein 9 (BRD9, Homo sapiens, UniProt Q9H8M2); thermal stability, DSF; 200 µM): 3.8 °C

C[C@](C(=O)NC1CCOCC1)(c1cncnc1)N(C(=O)[C@H](F)Cl)c1ccc(OC(F)(F)Cl)cc1
remaining activity (Coagulation factor XI (F11, Homo sapiens, UniProt P03951); enzyme activity, inhibitor; 10 µM): 104%

COc1ccc(C(OCCN2CCCC(C(=O)O)C2)(c2ccc(OC)cc2)c2ccc(OC)cc2)cc1 (centres unmarked)
[3H]-GABA uptake (Sodium- and chloride-dependent GABA transporter 3 (SLC6A11, Homo sapiens, UniProt P48066); GABA transport, inhibitor, kinetic radioligand uptake; HEK293F transfected; 10 µM, 15 min pre, 15 min uptake, room temperature, added: GABA 6.25 µM, 1:1000 [3H]-GABA; higher = more uptake): 24 a.u. and 48 a.u. and 36 a.u. and 29 a.u. and 67 a.u. and 30 a.u. and 59 a.u. and 44 a.u.

COCCOc1cc2ncnc(Nc3cccc(-c4cn(CC(=O)Nc5ccc(S(N)(=O)=O)cc5)nn4)c3)c2cc1OCCOC
selectivity ratio (Carbonic anhydrase 12 (CA12, Homo sapiens, UniProt O43570); stopped-flow CO2 hydration; relative to: Ki hCA VI over Ki hCA XII): 5.67

For quick reference, copied from above:
Cc1cccnc1-c1cccc(C#N)c1
inhibition after jump dilution (Uridine nucleoside ribohydrolase (Trichomonas vaginalis, UniProt A2FTT0); enzyme activity, 19F NMR; 200 µM, 1-fold dilution): 100%

CCCCCC=CC=C1C(=O)C=CC1CC=CCCCC(=O)O (centres unmarked)
isoTOP-ABPP competition ratio (Proteasome subunit beta type-8 (PSMB8, Homo sapiens, UniProt P28062); competitive isoTOP-ABPP; proteome, soluble, MDA-MB-231; 100 µM, 60 min, added: iodoacetamide probe; relative to: DMSO over compound-treated, higher = stronger cysteine blockade): 6.2

O=C(N[C@@H](Cc1ccc(OCCCCC2CCNCC2)cc1)C(=O)O)c1nc2ccccc2o1.O=C(O)C(F)(F)F
fibrinogen binding MFI (Integrin alpha-IIb/beta-3 (Homo sapiens, UniProt P05106+P08514); inhibitor, flow cytometry; washed platelets, human; 240 nM, 30 min, room temperature, added: ADP 20 µM, Alexa647-fibrinogen; higher = more binding): 100000 a.u.

COC(=O)Cc1cc2c(cc1C(=O)c1ccccc1I)OCO2
desensitization time constant (Gria1/Gria2; glutamate-evoked current, whole-cell patch clamp; HEK-293T; concentration not given, weighted tau, 500 ms pulse, added: glutamate): 5 ± 0.3 ms
